Experimental data from different studies.
Protocols differ between the studies behind these lines.
Cell line: HepG2

| SMILES | effect on | technique | concentration | time | viability |
| --- | --- | --- | --- | --- | --- |
| CC(=O)O[C@@H]1CC[C@@]2(C)C(CC[C@]3(C)C2C(=O)C=C2C4[C@@H](C)[C@H](C)CC[C@]4(C)CC[C@]23C)[C@@]1(C)C(=O)OCc1cn(-c2cc(=O)oc3ccccc23)nn1 (stereo partly drawn) | cell growth or viability | MTT | 25 µM | 24 h | 94% |
| NCC1OC(OC2C(N)CC(N)C(OC3OC(CO)C(O)C(N)C3O)C2OCCCCCCCCCCCCn2cc(CNc3nc(NCc4cn(CCCCCCCCCCCCOC5C(OC6OC(CN)C(O)CC6N)C(N)CC(N)C5OC5OC(CO)C(O)C(N)C5O)nn4)nc(NCc4cn(CCCCCCCCCCCCOC5C(OC6OC(CN)C(O)CC6N)C(N)CC(N)C5OC5OC(CO)C(O)C(N)C5O)nn4)n3)nn2)C(N)CC1O (stereo not drawn) | cell growth or viability | resazurin | 27 µM | 48 h | 27% |
| CC(C)=CCc1c(O)cc2c(c1O)C(=O)OC2 | cell growth or viability | CCK-8 | 10 µM | 24 h | 94.5% |
| CCn1cc(-c2ccnc(Nc3ccc(N4CCNCC4)cc3)n2)c(-c2cccnc2)n1 | cell growth or viability | – | 30 µM | – | 82% |
| CCOC(=O)c1cn(-c2nc(C(F)(F)F)n[nH]2)nn1 | cell growth or viability | MTT | 500 µM | 72 h | 84.3% |
| Cc1ccc(C(C)C)c(O)c1 | cell growth or viability | MTT | 25 µM | 24 h | 93% |
| COc1cc([C@@H]2OC[C@@H]3[C@H]2CO[C@H]3c2cc(OC)c(O)c(OC)c2)cc(OC)c1O | cell growth or viability | CCK-8 | 20 µM | 24 h | 92.6% |
| COc1cc(-c2nc3ccc(C(=O)NCCCN(C)C)cc3n2C2CCC2)cc(OC)c1OC | – | CellTiter-Glo | up to 100 µM | 24 h | not toxic |
| CC(C)=CCc1c(O)cc(CO)cc1O | cell growth or viability | CCK-8 | 10 µM | 24 h | 96.6% |
| CC(=O)O[C@@H]1CC[C@@]2(C)C(CC[C@]3(C)C2C(=O)C=C2C4[C@@H](C)[C@H](C)CC[C@]4(C)CC[C@]23C)[C@@]1(C)c1nnc(SCC(=O)OC2CC(C)CCC2C(C)C)o1 (stereo partly drawn) | cell growth or viability | MTT | 25 µM | 24 h | 99% |
| CC1=CC(OC(=O)c2ccccc2)C2(COC(=O)c3ccccc3)CCC(=C(C)C)C2C(O)CC2(C)OC2CC1 (stereo not drawn) | cell growth or viability | CCK-8 | 20 µM | 24 h | 93.9% |
| COc1cc(/C=N\NC(=O)[C@]2(C)C3CC[C@]4(C)C(C(=O)C=C5C6[C@@H](C)[C@H](C)CC[C@]6(C)CC[C@]54C)[C@@]3(C)CC[C@H]2OC(C)=O)cc(OC)c1OC (stereo partly drawn) | cell growth or viability | MTT | 25 µM | 24 h | 87% |

Some of these lines once more:
| SMILES | effect on | technique | concentration | time | viability |
| --- | --- | --- | --- | --- | --- |
| CC(=O)O[C@@H]1CC[C@@]2(C)C(CC[C@]3(C)C2C(=O)C=C2C4[C@@H](C)[C@H](C)CC[C@]4(C)CC[C@]23C)[C@@]1(C)c1nnc(SCC(=O)OC2CC(C)CCC2C(C)C)o1 (stereo partly drawn) | cell growth or viability | MTT | 25 µM | 24 h | 99% |
| CC(C)=CCc1c(O)cc(CO)cc1O | cell growth or viability | CCK-8 | 10 µM | 24 h | 96.6% |
